# Literature values, collected from citations in different studies.
# Chains of the proteins cited; added tags and fusions are not shown. Lines headed by an entry give the natural chain unless they say otherwise; changes in a name come on top. Residues count along the entry.
# UniProt P06493, whole entry: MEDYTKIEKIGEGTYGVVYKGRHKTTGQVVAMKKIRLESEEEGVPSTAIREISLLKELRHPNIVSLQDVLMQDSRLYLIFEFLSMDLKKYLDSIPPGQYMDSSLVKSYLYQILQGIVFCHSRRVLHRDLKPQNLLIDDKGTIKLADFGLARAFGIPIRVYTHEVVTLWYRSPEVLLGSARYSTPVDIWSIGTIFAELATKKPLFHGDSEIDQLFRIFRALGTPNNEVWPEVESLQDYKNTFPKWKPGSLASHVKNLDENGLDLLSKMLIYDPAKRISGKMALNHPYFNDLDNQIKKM
# UniProt P42260, 32-908 limits assumed: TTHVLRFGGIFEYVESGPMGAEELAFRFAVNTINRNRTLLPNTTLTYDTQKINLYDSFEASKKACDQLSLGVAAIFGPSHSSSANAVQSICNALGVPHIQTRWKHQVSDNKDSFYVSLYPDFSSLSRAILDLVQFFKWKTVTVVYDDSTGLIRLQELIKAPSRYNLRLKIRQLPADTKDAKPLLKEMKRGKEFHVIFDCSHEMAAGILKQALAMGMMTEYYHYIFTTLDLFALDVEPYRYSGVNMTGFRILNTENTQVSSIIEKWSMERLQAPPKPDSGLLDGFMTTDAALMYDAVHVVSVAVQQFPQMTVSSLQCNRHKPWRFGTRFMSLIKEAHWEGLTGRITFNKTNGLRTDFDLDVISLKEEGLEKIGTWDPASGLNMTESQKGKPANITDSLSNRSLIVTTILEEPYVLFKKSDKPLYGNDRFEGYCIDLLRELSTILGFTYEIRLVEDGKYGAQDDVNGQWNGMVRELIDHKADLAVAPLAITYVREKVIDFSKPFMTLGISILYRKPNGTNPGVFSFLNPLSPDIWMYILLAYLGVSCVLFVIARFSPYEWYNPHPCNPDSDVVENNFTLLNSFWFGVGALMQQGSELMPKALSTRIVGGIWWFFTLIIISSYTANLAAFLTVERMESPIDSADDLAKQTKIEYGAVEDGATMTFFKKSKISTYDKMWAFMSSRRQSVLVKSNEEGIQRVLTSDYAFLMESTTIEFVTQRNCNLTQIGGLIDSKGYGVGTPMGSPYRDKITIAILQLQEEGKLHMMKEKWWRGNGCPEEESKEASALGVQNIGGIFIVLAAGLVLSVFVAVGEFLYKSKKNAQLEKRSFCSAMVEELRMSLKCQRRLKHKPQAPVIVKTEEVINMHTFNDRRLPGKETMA
# UniProt Q01727, whole entry: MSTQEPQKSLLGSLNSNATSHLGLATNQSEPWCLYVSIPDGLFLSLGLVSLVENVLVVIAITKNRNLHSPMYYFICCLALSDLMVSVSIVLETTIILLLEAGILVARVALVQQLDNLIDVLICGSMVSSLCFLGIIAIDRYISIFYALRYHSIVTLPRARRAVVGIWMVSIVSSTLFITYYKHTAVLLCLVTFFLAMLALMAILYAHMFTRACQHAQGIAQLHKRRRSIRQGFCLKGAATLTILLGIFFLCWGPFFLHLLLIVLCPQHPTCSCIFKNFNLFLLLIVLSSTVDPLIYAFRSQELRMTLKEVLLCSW
# UniProt Q00961, 20-1237 limits assumed: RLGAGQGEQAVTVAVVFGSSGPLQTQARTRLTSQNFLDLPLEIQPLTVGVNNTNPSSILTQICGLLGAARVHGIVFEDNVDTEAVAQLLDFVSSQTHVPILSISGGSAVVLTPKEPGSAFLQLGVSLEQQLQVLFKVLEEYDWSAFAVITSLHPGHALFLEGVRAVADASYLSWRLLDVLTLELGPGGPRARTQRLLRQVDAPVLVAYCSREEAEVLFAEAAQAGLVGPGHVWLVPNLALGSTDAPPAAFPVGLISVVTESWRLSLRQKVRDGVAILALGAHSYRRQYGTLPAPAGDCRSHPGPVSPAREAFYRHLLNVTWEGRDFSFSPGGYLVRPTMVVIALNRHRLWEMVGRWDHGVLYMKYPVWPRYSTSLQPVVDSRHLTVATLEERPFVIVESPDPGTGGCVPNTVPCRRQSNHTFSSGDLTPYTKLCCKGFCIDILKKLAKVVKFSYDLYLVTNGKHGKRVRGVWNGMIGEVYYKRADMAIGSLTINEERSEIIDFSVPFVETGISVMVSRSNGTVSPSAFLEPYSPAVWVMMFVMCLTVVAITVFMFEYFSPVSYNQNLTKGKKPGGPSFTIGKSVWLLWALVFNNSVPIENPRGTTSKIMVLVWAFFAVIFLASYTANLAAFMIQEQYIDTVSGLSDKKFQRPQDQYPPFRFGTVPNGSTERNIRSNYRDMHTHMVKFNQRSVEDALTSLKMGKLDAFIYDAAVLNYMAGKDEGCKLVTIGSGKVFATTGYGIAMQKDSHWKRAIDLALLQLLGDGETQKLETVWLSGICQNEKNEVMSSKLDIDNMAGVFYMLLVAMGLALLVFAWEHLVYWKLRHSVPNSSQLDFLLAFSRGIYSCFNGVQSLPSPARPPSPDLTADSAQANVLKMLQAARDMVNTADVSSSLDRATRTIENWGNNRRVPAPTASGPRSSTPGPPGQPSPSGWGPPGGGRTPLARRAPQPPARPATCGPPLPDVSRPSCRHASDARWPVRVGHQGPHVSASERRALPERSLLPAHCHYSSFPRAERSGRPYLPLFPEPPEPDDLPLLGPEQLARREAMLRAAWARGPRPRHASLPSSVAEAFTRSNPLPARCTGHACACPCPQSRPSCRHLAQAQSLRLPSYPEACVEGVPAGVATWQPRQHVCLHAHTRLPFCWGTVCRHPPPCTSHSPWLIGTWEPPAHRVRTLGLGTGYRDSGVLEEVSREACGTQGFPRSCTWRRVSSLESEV
# UniProt O15392, whole entry: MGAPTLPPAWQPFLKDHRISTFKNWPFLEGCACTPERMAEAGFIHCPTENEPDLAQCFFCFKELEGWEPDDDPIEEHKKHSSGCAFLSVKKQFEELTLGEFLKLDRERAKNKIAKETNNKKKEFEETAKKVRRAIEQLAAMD
# UniProt P10747, whole entry, looked up: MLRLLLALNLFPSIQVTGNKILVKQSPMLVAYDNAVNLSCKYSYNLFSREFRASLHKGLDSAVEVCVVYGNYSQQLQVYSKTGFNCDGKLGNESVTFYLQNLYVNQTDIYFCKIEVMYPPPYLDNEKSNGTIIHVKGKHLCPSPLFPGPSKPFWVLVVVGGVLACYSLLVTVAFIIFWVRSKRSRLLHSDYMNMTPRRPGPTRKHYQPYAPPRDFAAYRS
# UniProt P00491, whole entry: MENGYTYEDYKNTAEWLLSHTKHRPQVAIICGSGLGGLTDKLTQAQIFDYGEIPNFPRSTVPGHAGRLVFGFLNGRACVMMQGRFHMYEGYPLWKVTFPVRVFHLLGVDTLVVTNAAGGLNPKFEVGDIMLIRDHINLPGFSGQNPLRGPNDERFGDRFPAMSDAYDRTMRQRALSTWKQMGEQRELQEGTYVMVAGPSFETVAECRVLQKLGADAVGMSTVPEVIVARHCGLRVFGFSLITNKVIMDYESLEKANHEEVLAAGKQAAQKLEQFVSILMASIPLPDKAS
# UniProt Q9Y653, whole entry, looked up, stated change not applied: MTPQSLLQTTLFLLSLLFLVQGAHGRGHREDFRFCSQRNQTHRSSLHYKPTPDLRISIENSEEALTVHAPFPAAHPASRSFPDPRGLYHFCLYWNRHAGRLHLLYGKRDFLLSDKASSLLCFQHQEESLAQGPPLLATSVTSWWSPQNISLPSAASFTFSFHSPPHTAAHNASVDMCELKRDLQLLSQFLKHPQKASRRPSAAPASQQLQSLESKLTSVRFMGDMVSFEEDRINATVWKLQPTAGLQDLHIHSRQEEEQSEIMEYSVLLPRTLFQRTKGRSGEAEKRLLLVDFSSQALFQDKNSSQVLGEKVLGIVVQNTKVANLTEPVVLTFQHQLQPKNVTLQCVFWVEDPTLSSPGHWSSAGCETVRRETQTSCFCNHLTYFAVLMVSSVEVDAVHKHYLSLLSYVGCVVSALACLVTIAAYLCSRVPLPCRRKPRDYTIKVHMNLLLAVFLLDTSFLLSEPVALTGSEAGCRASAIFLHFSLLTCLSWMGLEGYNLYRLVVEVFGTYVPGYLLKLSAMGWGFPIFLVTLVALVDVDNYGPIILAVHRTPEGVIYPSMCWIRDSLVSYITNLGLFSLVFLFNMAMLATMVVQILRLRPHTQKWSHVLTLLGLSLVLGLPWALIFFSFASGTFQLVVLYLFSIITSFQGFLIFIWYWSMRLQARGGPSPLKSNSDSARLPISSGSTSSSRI
# UniProt P42264, 32-919 limits assumed: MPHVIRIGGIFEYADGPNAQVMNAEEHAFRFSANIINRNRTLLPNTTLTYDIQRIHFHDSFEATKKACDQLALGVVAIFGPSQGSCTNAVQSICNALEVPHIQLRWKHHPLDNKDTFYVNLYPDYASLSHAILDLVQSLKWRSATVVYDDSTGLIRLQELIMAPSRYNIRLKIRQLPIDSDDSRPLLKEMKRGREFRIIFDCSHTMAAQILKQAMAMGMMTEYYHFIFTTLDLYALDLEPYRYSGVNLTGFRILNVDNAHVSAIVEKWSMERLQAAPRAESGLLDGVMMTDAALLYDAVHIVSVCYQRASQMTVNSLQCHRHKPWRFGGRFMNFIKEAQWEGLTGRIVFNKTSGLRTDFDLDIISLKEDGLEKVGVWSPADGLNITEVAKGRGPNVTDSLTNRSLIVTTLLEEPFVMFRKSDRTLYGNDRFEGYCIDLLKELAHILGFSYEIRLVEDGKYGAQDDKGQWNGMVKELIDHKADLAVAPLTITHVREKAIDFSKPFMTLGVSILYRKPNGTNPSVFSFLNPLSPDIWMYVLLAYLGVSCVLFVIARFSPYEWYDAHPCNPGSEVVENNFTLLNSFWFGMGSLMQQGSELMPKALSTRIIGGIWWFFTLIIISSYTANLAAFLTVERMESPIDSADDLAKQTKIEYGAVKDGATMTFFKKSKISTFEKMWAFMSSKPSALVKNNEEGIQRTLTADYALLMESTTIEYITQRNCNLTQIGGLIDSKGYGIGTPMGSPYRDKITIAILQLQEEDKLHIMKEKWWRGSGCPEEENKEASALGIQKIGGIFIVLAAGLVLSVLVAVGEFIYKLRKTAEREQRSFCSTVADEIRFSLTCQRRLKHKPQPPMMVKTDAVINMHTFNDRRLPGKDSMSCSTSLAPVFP
# UniProt P20248, whole entry partner: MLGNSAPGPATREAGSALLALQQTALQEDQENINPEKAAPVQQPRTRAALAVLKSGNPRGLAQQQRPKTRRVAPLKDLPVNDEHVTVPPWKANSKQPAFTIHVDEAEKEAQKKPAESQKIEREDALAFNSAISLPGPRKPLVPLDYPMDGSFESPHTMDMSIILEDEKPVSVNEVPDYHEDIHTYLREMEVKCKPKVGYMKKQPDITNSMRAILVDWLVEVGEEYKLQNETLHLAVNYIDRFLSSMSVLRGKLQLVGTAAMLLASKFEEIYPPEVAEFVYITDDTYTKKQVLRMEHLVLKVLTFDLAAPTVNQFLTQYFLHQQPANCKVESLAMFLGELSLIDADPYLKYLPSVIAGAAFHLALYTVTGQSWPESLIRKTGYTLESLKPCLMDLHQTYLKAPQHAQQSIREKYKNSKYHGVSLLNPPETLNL
# Compare with care: the assays were run in different laboratories. Numbers after ± are the reported error.
# CDK1: Cyclin-dependent kinase 1 (CDK1, Homo sapiens, UniProt P06493)
Structure (SMILES),target,assay,conditions,endpoint,result
CCC[C@@H]1CN[C@H](C(=O)O)[C@H]1c1cccc(C(=O)O)c1,"Glutamate receptor ionotropic, kainate 2 (Grik2, Rattus norvegicus, UniProt P42260)","binding, radioligand binding","homomeric receptor, added: [3H]kainate",Ki,81 µM
C[C@@H]1NC(=O)[C@H](CC(N)=O)NC(=O)[C@H](Cc2c[nH]c3ccccc23)NC(=O)[C@H](CCCNC(=N)N)NC(=O)[C@@H](Cc2ccccc2)NC(=O)[C@H](Cc2c[nH]cn2)NC(=O)[C@@H](NC(=O)[C@@H](N)Cc2ccc(O)cc2)CSSC[C@@H](C(=O)N[C@@H](Cc2ccc(O)cc2)C(N)=O)NC(=O)[C@H](Cc2ccccc2)NC1=O,"Melanocyte-stimulating hormone receptor (Mc1r, Mus musculus, UniProt Q01727)","cAMP, agonist",,EC50,0.0004 µM
O=C(O)c1cc([C@H]2CCN[C@@H]2C(=O)O)ccc1Cl,"Glutamate receptor ionotropic, NMDA 2C, with GluN1 (Rattus norvegicus, UniProt Q00961)","ion current, antagonist, two-electrode voltage clamp",GluN1/GluN2C,IC50,24 µM
C[C@H](N)C(=O)N[C@@H](CCCNC(=N)N)C(=O)N[C@H](C(=O)N[C@@H](CCCCN)C(=O)N[C@@H](CCC(N)=O)C(=O)N[C@H](C(=O)N[C@@H](C)C(=O)N[C@@H](CCCNC(=N)N)C(=O)N[C@@H](CCCCN)C(=O)N[C@@H](CO)C(=O)N[C@H](C(=O)NCC(=O)O)[C@@H](C)O)[C@@H](C)O)[C@@H](C)OP(=O)(O)O,"Baculoviral IAP repeat-containing protein 5 (BIRC5, Homo sapiens, UniProt O15392)",ITC,"pH 7.2, 25 °C",Kd,2.31 ± 0.08 µM
COc1cc(Nc2ccnc3ccc(Br)cc23)cc(OC)c1OC,ACVR1,binding,,Kd,0.98 µM
CCC(C)NC(=O)CSc1nnc(Nc2ccc(C(C)C)cc2)s1 (stereo not drawn),"CD28 (Homo sapiens, UniProt P10747)","binding, microscale thermophoresis",,Kd,52.5 ± 18.7 µM
O=C1N=C(Nc2ccccc2)S/C1=C\c1ccc2ncccc2c1,CDK1,"kinase activity, inhibitor",,IC50,2 µM
C[C@H]1N[C@@H](c2c[nH]c3c(=O)[nH]cnc23)[C@H](O)[C@@H]1O,"Purine nucleoside phosphorylase (PNP, Homo sapiens, UniProt P00491)",binding,"pH 7.4, 25 °C, first subunit, added: phosphate 50 mM",Kd,0.025 ± 0.001 µM
CS(=O)(=O)N(CCCN1CCCCC1)c1ccc(Nc2ncc3cnn(C4CCCCCC4)c3n2)cc1,CDK1,"kinase activity, inhibitor",,IC50,0.006 µM
CSCC[C@H](NC(=O)[C@H](CC(C)C)NC(=O)[C@@H](NC(=O)[C@H](C)NC(=O)[C@H](Cc1ccccc1)NC(=O)[C@H](Cc1ccc(O)cc1)NC(=O)[C@@H](N)[C@@H](C)O)C(C)C)C(N)=O,"ADGRG1 (Homo sapiens, UniProt Q9Y653)",agonist,,EC50,35 µM
O=C(O)c1cc(O)cc([C@H]2CCN[C@@H]2C(=O)O)c1,"Glutamate receptor ionotropic, kainate 3 (Rattus norvegicus, UniProt P42264)","binding, radioligand binding","homomeric receptor, added: [3H]kainate",Ki,2.1 µM
COc1c(O)cc2ccc3cc(O)ccc3c2c1OC,CDK1,"kinase activity, inhibitor",,IC50,1.2 µM

# For quick reference, copied from above:
Structure (SMILES),target,assay,conditions,endpoint,result
C[C@H]1N[C@@H](c2c[nH]c3c(=O)[nH]cnc23)[C@H](O)[C@@H]1O,"Purine nucleoside phosphorylase (PNP, Homo sapiens, UniProt P00491)",binding,"pH 7.4, 25 °C, first subunit, added: phosphate 50 mM",Kd,0.025 ± 0.001 µM
